Results from different studies.
Compare with care: the assays were run in different laboratories.
B1: POL30 1-258 (Saccharomyces cerevisiae, UniProt P15873); chain MLEAKFEEASLFKRIIDGFKDCVQLVNFQCKEDGIIAQAVDDSRVLLVSLEIGVEAFQEYRCDHPVTLGMDLTSLSKILRCGNNTDTLTLIADNTPDSIILLFEDTKKDRIAEYSLKLMDIDADFLKIEELQYDSTLSLPSSEFSKIVRDLSQLSDSINIMITKETIKFVADGDIGSGSVIIKPFVDMEHPETSIKLEMDQPVDLTFGAKYLLDIIKGSSLSDRVGIRLSSEAPALFQFDLKSGFLQFFLAPKFNDEE
B2: PUM1 701-1186 (Homo sapiens, UniProt Q14671); chain TGSGSRRDSLTGSSDLYKRTSSSLTPIGHSFYNGLSFSSSPGPVGMPLPSQGPGHSQTPPPSLSSHGSSSSLNLGGLTNGSGRYISAAPGAEAKYRSASSASSLFSPSSTLFSSSRLRYGMSDVMPSGRSRLLEDFRNNRYPNLQLREIAGHIMEFSQDQHGSRFIQLKLERATPAERQLVFNEILQAAYQLMVDVFGNYVIQKFFEFGSLEQKLALAERIRGHVLSLALQMYGCRVIQKALEFIPSDQQNEMVRELDGHVLKCVKDQNGNHVVQKCIECVQPQSLQFIIDAFKGQVFALSTHPYGCRVIQRILEHCLPDQTLPILEELHQHTEQLVQDQYGNYVIQHVLEHGRPEDKSKIVAEIRGNVLVLSQHKFASNVVEKCVTHASRTERAVLIDEVCTMNDGPHSALYTMMKDQYANYVVQKMIDVAEPGQRKIVMHKIRPHIATLRKYTYGKHILAKLEKYYMKNGVDLGPICGPPNGII
B3: CHEK2 109-193 (Homo sapiens, UniProt O96017); chain VNDNYWFGRDKSCEYCFDEPLLKRTDKYRTYSKKHFRIFREVGPKNSYIAYIEDHSGNGTFVNTELVGKGKRRPLNNNSEIALSL
B4: TFB2M 60-396 (Homo sapiens, UniProt Q9H5Q4); sequence looked up; chain PPRKASKASLDFKRYVTDRRLAETLAQIYLGKPSRPPHLLLECNPGPGILTQALLEAGAKVVALESDKTFIPHLESLGKNLDGKLRVIHCDFFKLDPRSGGVIKPPAMSSRGLFKNLGIEAVPWTADIPLKVVGMFPSRGEKRALWKLAYDLYSCTSIYKFGRIEVNMFIGEKEFQKLMADPGNPDLYHVLSVIWQLACEIKVLHMEPWSSFDIYTRKGPLENPKRRELLDQLQQKLYLIQMIPRQNLFTKNLTPMNYNIFFHLLKHCFGRRSATVIDHLRSLTPLDARDILMQIGKQEDEKVVNMHPQDFKTLFETIERSKDCAYKWLYDETLEDR
B5: rcf2 (Schizosaccharomyces pombe, UniProt Q9P3B2); sequence looked up; chain MKLSTPEEVKAFNRNTYSALFKGALVGSSLGIAGWLIGNRYSAGFRRLPFSLKSWLVIGSGSGASIIFADKAGLKFEAERYGKFDQIDYSTKGLPWNQRALYYFNEHKWPIILGTWASTMGLSLYAASRNRYDTAPQKLIQARMYAQGVTVVVLLGSVYLSTLANRLEPLEREVLVTDPSNPTKLVAFKQRKERYPGELQWEVLVSQDEERLRKLNLPLREPHGSTGPMSTPTPALNSSRSA
B6: SNAPC5 (Homo sapiens, UniProt O75971); chain MLSRLQELRKEEETLLRLKAALHDQLNRLKVEELALQSMISSRRGDEMLSSHTVPEQSHDMLVHVDNEASINQTTLELSTKSHVTEEEEEEEEEESDS
B7: cysJ 237-599 (Escherichia coli, UniProt P38038); sequence looked up; chain LVASLSVNQKITGRNSEKDVRHIEIDLGDSGMRYQPGDALGVWYQNDPALVKELVELLWLKGDEPVTVEGKTLPLNEALQWHFELTVNTANIVENYATLTRSETLLPLVGDKAKLQHYAATTPIVDMVRFSPAQLDAEALINLLRPLTPRLYSIASSQAEVENEVHVTVGVVRYDVEGRARAGGASSFLADRVEEEGEVRVFIEHNDNFRLPANPETPVIMIGPGTGIAPFRAFMQQRAADEAPGKNWLFFGNPHFTEDFLYQVEWQRYVKDGVLTRIDLAWSRDQKEKVYVQDKLREQGAELWRWINDGAHIYVCGDANRMAKDVEQALLEVIAEFGGMDTEAADEFLSELRVERRYQRDVY
B8: YDJ1 residues 1-109 G70N (Saccharomyces cerevisiae, UniProt P25491); chain GEFGSMVKETKFYDILGVPVTATDVEIKKAYRKCALKYHPDKNPSEEAAEKFKEASAAYEILSDPEKRDIYDQFNEDGLSGAGGAGGFPGGGFGFGDDIFSQFFGAGGAQRPRG
B9: rasC Q62L (Dictyostelium discoideum, UniProt P32253); sequence looked up; chain MSKLLKLVIVGDGGVGKSALTIQLTQNQFIAEYDPTIENSYRKQVNIDEEVYMLDILDTAGLEEYSAMRDQYIRSGRGFLIVYSIISRASFEAVTTFREQILRVKDLSTYPIVIIGNKADLPDKDRKVPPMEGKELAKSFGAPFLETSAKSRVNVEEAFFTLVREIKRWNQNPQNEEMLPPKKRGCIIL
B10: ranibizumab Fab; V domains shown; VH EVQLVESGGGLVQPGGSLRLSCAASGYDFTHYGMNWVRQAPGKGLEWVGWINTYTGEPTYAADFKRRFTFSLDTSKSTAYLQMNSLRAEDTAVYYCAKYPYYYGTSHWYFDVWGQGTLVTVSS; VL DIQLTQSPSSLSASVGDRVTITCSASQDISNYLNWYQQKPGKAPKVLIYFTSSLHSGVPSRFSGSGSGTDFTLTISSLQPEDFATYYCQQYSTVPWTFGQGTKVEIK
B11: AEBP2 407-503 (Homo sapiens, UniProt Q6ZN18-2); sequence looked up; chain RHRAICFNLSAHIESLGKGHSVVFHSTVIAKRKEDSGKIKLLLHWMPEDILPDVWVNESERHQLKTKVVHLSKLPKDTALLLDPNIYRTMPQKRLKR
B12: EFR3A 721-791 L731A (Homo sapiens, UniProt Q14156); chain SNTEEITFEAAKKAIDTSGMEEQEKEKRRLVIEKFQKAPFEEIAAQCESKANLLHDRLAQILELTIRPPPS
B13: PSMG3/PSMG4 heterodimer (Homo sapiens); chain 1 MEDTPLVISKQKTEVVCGVPTQVVCTAFSSHILVVVTQFGKMGTLVSLEPSSVASDVSKPVLTTKVLLGQDEPLIHVFAKNLVAFVSQEAGNRAVLLAVAVKDKSMEGLKALREVIRVCQVW; chain 2 MEGLVVAAGGDVSLHNFSARLWEQLVHFHVMRLTDSLFLWVGATPHLRNLAVAMCSRYDSIPVSTSLLGDTSDTTSTGLAQRLARKTNKQVFVSYNLQNTDSNFALLVENRIKEEMEAFPEKF
Chain of UniProt P49767 (whole entry, looked up): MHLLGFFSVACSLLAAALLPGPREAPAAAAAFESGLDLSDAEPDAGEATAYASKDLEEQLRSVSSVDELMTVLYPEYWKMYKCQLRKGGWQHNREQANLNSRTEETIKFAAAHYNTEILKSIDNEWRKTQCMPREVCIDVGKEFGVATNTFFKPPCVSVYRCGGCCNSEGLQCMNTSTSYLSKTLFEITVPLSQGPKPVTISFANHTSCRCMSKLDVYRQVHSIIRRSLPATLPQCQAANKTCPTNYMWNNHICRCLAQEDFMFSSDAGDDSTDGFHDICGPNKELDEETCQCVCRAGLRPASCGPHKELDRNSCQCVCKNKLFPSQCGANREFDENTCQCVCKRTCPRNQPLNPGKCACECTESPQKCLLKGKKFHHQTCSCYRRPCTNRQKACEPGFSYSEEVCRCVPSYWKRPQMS
Chain of UniProt Q15022 (whole entry, looked up): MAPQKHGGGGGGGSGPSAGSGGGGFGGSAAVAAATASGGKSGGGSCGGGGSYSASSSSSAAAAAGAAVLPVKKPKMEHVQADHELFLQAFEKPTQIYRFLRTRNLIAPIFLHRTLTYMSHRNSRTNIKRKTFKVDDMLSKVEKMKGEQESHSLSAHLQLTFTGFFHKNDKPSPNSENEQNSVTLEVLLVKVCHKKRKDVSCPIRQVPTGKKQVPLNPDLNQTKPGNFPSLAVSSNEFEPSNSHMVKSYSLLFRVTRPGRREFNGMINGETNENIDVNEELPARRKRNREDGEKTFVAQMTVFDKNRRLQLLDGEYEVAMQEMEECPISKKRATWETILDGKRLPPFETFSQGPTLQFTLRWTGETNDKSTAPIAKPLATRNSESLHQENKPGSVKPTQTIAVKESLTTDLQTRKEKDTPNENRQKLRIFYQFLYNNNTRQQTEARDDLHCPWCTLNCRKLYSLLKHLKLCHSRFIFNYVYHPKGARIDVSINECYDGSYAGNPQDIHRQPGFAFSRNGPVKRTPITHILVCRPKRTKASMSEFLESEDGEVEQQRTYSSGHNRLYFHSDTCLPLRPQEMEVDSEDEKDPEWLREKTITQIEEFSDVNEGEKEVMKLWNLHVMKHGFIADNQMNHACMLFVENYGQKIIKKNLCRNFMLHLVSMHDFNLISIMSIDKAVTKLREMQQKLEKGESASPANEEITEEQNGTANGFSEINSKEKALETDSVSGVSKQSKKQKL
Chain of UniProt Q16533 (whole entry, looked up): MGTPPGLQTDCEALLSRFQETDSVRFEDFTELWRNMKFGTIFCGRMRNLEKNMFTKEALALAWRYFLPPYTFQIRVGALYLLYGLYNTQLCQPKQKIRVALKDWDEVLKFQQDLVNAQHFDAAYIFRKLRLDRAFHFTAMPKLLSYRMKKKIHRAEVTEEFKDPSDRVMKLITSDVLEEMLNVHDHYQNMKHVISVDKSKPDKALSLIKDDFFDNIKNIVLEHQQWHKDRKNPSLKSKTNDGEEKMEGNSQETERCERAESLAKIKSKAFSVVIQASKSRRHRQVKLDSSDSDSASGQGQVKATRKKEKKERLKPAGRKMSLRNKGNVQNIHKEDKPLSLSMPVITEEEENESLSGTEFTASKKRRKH
Chain of UniProt P07271 (whole entry, unmodified, looked up): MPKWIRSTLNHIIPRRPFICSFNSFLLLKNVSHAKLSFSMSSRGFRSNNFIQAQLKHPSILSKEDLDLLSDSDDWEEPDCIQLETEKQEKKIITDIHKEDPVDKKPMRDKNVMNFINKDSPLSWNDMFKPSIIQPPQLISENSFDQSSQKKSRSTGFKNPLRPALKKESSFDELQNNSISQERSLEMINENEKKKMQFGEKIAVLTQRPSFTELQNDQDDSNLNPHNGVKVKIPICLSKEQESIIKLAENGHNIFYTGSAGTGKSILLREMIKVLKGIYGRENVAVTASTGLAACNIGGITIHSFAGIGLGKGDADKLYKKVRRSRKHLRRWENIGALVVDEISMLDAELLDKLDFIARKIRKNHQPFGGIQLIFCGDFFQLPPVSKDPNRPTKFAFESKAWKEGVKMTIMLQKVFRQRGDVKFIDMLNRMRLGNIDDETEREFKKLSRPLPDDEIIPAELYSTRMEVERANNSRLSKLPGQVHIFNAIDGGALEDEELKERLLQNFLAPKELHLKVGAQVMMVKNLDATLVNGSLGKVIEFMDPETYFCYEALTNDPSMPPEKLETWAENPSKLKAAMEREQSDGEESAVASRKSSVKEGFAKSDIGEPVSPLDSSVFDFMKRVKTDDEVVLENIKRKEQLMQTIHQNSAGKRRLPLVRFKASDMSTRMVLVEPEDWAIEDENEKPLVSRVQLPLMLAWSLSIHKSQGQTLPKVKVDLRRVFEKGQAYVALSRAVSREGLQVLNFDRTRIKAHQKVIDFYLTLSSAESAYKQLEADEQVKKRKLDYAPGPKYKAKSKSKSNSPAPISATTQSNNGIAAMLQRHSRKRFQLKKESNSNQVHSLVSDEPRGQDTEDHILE
Chain of UniProt P14575 (whole entry, looked up): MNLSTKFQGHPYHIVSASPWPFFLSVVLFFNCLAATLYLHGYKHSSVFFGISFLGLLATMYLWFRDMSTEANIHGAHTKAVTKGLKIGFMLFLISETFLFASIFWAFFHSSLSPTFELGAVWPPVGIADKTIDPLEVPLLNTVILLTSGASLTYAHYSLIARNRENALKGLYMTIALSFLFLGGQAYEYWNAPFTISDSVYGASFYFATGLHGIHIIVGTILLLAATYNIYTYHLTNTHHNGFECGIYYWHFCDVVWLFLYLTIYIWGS
Chain of UniProt Q09312 (whole entry, looked up): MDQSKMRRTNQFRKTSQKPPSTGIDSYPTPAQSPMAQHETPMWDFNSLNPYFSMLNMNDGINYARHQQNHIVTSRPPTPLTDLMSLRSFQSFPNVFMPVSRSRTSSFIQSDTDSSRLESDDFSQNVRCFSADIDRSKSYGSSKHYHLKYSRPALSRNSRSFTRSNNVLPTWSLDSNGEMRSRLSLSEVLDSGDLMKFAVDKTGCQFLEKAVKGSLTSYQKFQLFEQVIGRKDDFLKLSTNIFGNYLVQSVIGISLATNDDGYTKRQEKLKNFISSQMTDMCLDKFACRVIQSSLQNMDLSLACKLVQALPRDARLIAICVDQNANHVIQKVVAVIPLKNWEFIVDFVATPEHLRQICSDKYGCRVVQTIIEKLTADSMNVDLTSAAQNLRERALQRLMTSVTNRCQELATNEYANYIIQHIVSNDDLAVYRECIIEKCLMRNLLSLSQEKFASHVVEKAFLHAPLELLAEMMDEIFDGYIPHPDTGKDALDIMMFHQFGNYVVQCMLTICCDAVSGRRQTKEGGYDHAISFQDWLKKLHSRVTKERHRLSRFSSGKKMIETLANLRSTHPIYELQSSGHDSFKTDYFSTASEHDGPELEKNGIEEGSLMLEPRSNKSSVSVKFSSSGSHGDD
Chain of UniProt P17846 (whole entry, looked up): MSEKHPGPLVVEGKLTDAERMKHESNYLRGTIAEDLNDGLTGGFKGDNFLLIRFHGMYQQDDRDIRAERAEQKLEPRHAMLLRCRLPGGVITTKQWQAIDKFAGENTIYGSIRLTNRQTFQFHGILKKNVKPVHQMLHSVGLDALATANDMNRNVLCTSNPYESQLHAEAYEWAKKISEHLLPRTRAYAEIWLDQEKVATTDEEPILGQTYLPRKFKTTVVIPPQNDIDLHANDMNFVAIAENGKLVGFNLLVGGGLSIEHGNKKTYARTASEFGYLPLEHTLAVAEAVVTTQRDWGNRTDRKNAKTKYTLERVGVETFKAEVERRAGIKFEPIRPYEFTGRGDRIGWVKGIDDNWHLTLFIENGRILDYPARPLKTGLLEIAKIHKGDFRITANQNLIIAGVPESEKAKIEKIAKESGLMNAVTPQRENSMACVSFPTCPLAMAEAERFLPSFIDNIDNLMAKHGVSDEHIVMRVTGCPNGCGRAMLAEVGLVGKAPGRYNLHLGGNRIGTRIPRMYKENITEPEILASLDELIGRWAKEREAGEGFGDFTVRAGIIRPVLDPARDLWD
Chain of UniProt Q6ZLB0 (whole entry, looked up): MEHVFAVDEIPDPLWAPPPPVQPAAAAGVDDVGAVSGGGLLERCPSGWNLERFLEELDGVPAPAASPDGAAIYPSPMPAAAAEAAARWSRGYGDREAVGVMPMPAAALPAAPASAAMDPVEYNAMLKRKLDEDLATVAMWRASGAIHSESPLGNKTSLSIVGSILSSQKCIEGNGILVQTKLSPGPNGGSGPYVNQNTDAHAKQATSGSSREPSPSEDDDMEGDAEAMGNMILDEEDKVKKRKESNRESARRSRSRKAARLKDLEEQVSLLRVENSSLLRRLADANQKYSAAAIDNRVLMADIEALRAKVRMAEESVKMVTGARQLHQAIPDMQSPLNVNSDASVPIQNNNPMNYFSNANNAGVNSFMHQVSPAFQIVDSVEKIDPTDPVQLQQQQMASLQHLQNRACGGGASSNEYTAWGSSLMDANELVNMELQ
Chain of UniProt P25789 (whole entry, looked up): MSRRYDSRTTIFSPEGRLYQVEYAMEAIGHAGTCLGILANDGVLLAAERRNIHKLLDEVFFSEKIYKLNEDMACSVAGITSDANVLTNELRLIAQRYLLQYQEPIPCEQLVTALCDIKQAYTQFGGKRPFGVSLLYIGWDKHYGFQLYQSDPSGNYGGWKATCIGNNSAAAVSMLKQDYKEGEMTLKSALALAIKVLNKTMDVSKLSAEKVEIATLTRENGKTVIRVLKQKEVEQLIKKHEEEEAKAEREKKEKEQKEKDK
Chain of UniProt Q69XV0 (whole entry, looked up): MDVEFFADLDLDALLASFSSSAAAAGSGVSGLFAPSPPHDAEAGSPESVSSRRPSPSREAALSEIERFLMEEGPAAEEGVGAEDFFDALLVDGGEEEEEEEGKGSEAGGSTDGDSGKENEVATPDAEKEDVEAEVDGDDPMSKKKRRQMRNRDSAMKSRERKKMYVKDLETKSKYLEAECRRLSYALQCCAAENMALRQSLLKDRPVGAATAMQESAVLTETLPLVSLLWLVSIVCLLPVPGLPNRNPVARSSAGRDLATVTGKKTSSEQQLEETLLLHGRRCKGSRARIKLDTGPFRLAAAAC

| Molecule | tested on | test | system | conditions | scale | quantity | result |
| --- | --- | --- | --- | --- | --- | --- | --- |
| B1 (POL30 1-258) | PIF1 233-859 (Saccharomyces cerevisiae, UniProt P07271) | pull-down |  |  |  | binding | binds |
| B2 (PUM1 701-1186) | CNOT1/CNOT2/CNOT3 C-terminal NOT module 1833-2361 | pull-down |  |  |  | binding | binds |
| QLMPFGSLLD | HLA class I histocompatibility antigen, A alpha chain, allele A*02:01 (Homo sapiens, UniProt P04439) | conformational ELISA | peptide | concentration not given | baseline: positive control peptide, direction not given | binding score | 5.9% |
| NRVDSKETEC | human MAGI1-3/6 PDZ construct (MBP fusion) | automated holdup | peptide, crude extract | concentration not given, corrected by standard peak, unit not given | baseline: biotin control resin, higher = stronger binding | binding intensity | 0.0217 |
| HDA6 (Arabidopsis thaliana, UniProt Q9FML2) | PAF1 (Arabidopsis thaliana, UniProt F4HQA1) | pull-down |  |  |  | binding | binds |
| B3 (CHEK2 109-193) | SQSTM1 (Homo sapiens, UniProt Q13501) | pull-down |  |  |  | binding | binds |
| CDC48 (Saccharomyces cerevisiae, UniProt P25694) | UFD1/NPL4 (Saccharomyces cerevisiae) | pull-down |  |  |  | binding | binds |
| B4 (TFB2M 60-396) | POLRMT 43-1230 (Homo sapiens, UniProt O00411) | cryo-EM |  |  |  | binding | binds |
| nusG KOW domain Q177M, selenomethionine (Escherichia coli) (sequence not shown) | rho fragment (Escherichia coli) | crystal structure |  |  |  | binding | binds |
| B5 (rcf2) | cox3 (Schizosaccharomyces pombe, UniProt P14575) | cryo-EM |  |  |  | binding | binds |
| B6 (SNAPC5) | SNAPC1 (Homo sapiens, UniProt Q16533) | cross-linking |  |  |  | binding | binds |
| GSGAGKETEC | human MAGI1-3/6 PDZ construct (MBP fusion) | automated holdup | peptide, purified PDZ protein | concentration not given, unit not given | baseline: biotin control resin, higher = stronger binding | binding intensity | -0.131 |
| B7 (cysJ 237-599) | cysI 1-570 (Escherichia coli, UniProt P17846) | cryo-EM structure |  |  |  | binding | binds |
| B8 (YDJ1 residues 1-109 G70N) | SSA1 T201A (Saccharomyces cerevisiae, UniProt P10591) | NMR titration |  | with: ATP |  | binding | binds |
| B9 (rasC Q62L) | racE T25N/S192D (Dictyostelium discoideum) | SEC |  |  |  | binding | binds |
| SSHSSLTERHKILHRLLQEGSPSDITTLSVEPD (NCOA1 678-710 (Homo sapiens, UniProt Q15788); sequence looked up) | NR1I2 130-434 L411W (Homo sapiens, UniProt O75469) | crystal structure | peptide |  |  | binding | binds |
| EPEVWVVEAEDEPLLA (Lrp10 698-713 (Mus musculus, UniProt Q7TQH7)) | AP2A2/AP2B1/AP2M1/AP2S1 core, lacking appendage domains (Mus musculus) | pull-down | peptide |  |  | binding | binds |
| B10 (ranibizumab Fab) | VEGFC (Homo sapiens, UniProt P49767) | SPR | Fab |  |  | binding | no binding |
| B11 (AEBP2 407-503) | SUZ12 146-363 (Homo sapiens, UniProt Q15022) | SEC |  |  |  | binding | binds |
| NGVTKTILEPRARVEKDYGKISLEHKTKYSNEYGD (gld-3 860-894 (Caenorhabditis elegans, UniProt Q95ZK7); sequence looked up) | fbf-2 164-575 (Caenorhabditis elegans, UniProt Q09312) | fluorescence polarisation |  |  |  | binding | binds |
| bZIP50 (Oryza sativa, UniProt Q69XV0) | RISBZ1 (Oryza sativa, UniProt Q6ZLB0) | pull-down |  | in vitro |  | binding | binds |
| GSPTAILIGSLVAIILLLLLIIALVLWRLHWRR (DDR1 413-445 C422S/M437V (Homo sapiens, UniProt Q08345); sequence looked up) | DDR2 395-427 C404S (Homo sapiens, UniProt Q16832) | NMR titration |  |  |  | binding | binds |
| B12 (EFR3A 721-791 L731A) | TTC7B/FAM126A FAM126A 1-308 (Homo sapiens) | BLI |  |  |  | binding | binds |
| SMNTTLGSIGSRKYSFNYSSLPSPYKTTVYRYSAAKKIPD (NUP60 200-239 (Saccharomyces cerevisiae, UniProt P39705); sequence looked up) | NUP85/SEH1 Nup85 1-564 (Saccharomyces cerevisiae) | pull-down |  |  |  | binding | binds |
| LTSTVQLIM | HLA class I histocompatibility antigen, A alpha chain, allele A*01:01 (Homo sapiens, UniProt P04439) | conformational ELISA | peptide | concentration not given | baseline: positive control peptide, direction not given | binding score | 80.9% |
| B13 (PSMG3/PSMG4 heterodimer) | PSMA4 (Homo sapiens, UniProt P25789) | cryo-EM |  |  |  | binding | binds |
